Measured values collected from several papers.
Lines come from different studies, so protocols differ. Several values in a cell are separate wells, animals, samples, runs or records. Numbers after ± are the reported error.
Beta-lactamase CTX-M-27: Beta-lactamase CTX-M-27 (Escherichia coli, UniProt Q840M4)

`C=Cc1c(C)c2cc3nc(cc4nc(cc5[nH]c(cc1[nH]2)c(C)c5CCC(=O)O)C(CCC(=O)OC)=C4C)C1(C)C3=CC=C(C(=O)OC)C1C(=O)OC` (stereo not drawn) gave a Kd of 115 µM (Angiotensin-converting enzyme 2 (ACE2, Homo sapiens, UniProt Q9BYF1); binding, BLI).
`C[C@H](N)C(=O)N[C@@H](CCCNC(=N)N)C(=O)N[C@H](C(=O)N[C@@H](CCCC[N+](C)(C)C)C(=O)N[C@@H](CCC(N)=O)C(=O)N[C@H](C(=O)N[C@@H](C)C(=O)N[C@@H](CCCNC(=N)N)C(=O)N[C@@H](CCCCN)C(=O)N[C@@H](CO)C(=O)N[C@H](C(=O)NCC(=O)NCC(=O)N[C@@H](CCCCN)C(=O)N[C@@H](C)C(=O)N[C@@H](CCCCNC(=O)c1ccc2c(c1)C(=O)OC21c2ccc(O)cc2Oc2cc(O)ccc21)C(N)=O)[C@@H](C)O)[C@@H](C)O)[C@@H](C)O` has a Kd of 16.2 ± 4.4 µM (Inhibitor of growth protein 1, PHD finger (ING1, Homo sapiens, UniProt Q9UK53); binding, fluorescence polarization; pH 7.5, 25 °C, with: fluorescein-labelled histone H3K4 peptide).
For `O=C(O)C(O)Cc1c[nH]c2ccccc12` (stereo not drawn), the Kd was 45 µM and ~45 µM (txtE (Streptomyces scabiei, UniProt C9ZDC6); binding; pH 8).
`O=C(Nc1cccc(-c2nn[nH]n2)c1)c1cc(-n2cccn2)cc(C(F)(F)F)c1` gave a Kd of 2.19 ± 0.06 µM (Beta-lactamase CTX-M-27; surface plasmon resonance; 25 °C).
The Kd of `C[n+]1cn([C@@H]2O[C@H](COP(=O)([S-])OP(=O)(O)OP(=O)(O)OP(=O)([S-])OC[C@H]3O[C@@H](n4c[n+](C)c5c(O)nc(N)nc54)[C@H](O)[C@@H]3O)[C@@H](O)[C@H]2O)c2nc(N)nc(O)c21` (stereo partly drawn) is reported as roughly 800 µM (mRNA decapping complex subunit 2, regulatory domain (dcp2, Schizosaccharomyces pombe, UniProt O13828); binding to Dcp2 regulatory domain).
`CC[C@H](C)[C@@H]1NC(=O)[C@H]([C@@H](C)O)NC(=O)CNC(=O)[C@H](CCCNC(=N)N)NC(=O)[C@H](CC(C)C)NC(=O)[C@@H]2CSSC[C@H](NC1=O)C(=O)N[C@H](C(=O)N[C@@H](CO)C(=O)NCC(N)=O)CSSC[C@H](NC(=O)[C@H](C)N)C(=O)N[C@@H](C)C(=O)N[C@@H](Cc1c[nH]c3ccccc13)C(=O)N2` has a Kd of 0.00084 µM (Chymotrypsinogen A, activated (alpha-chymotrypsin) (Bos taurus, UniProt P00766); SPR; pH 7.4, 25 °C).
For `CC(=O)N[C@@H](CCC(N)=O)C(=O)N[C@H]1CSCc2cccc(c2)C[S+](C)CC[C@@H](C(=O)N[C@@H](Cc2ccc(O)cc2)C(=O)N[C@@H](Cc2ccc(O)cc2)C(=O)N[C@@H](CCCCN)C(=O)N[C@H](C(=O)O)C(C)C)NC(=O)[C@H](CC(N)=O)NC(=O)[C@H](C)NC(=O)[C@@H]2CCCN2C1=O` (stereo partly drawn), the Kd was 3.02 µM (Regulator of G-protein signaling 3, PDZ domain (Rgs3, Mus musculus, UniProt Q9DC04); fluorescence polarization; 1 h, pH 7.4, 25 °C, with: FAM-labelled peptide tracer).
`O=C(Nc1cccc(-c2nn[nH]n2)c1)c1cc(-c2cncnc2)cc(C(F)(F)F)c1` gave a Kd of 4.41 ± 0.04 µM (Beta-lactamase CTX-M-27; surface plasmon resonance; 25 °C).
The Kd of `CC(=O)N(Cc1ccccc1)[C@@H](C)C(=O)N(C)CC(=O)N(Cc1c[nH]c2cc(Cl)ccc12)[C@@H](C)C(=O)N(C)CC(=O)N(CCC(C)(C)C)[C@@H](C)C(=O)N1CCNCC1` is reported as 1.63 µM (E3 ubiquitin-protein ligase Mdm2 (MDM2, Homo sapiens, UniProt Q00987); binding, ITC).
For `C#CCN1C(=O)C(O)(C(=O)O)Oc2cc(F)ccc21` (stereo not drawn), the Kd was < 3 µM and 1 µM (Dihydroxy-acid dehydratase, chloroplastic (DHAD, Arabidopsis thaliana, UniProt Q9LIR4); microscale thermophoresis).
The Kd of `CN(C)c1ccc2c(-c3ccc(C(=O)NCCCC[C@H](NC(=O)COCCOCCNC(=O)CC[C@@H]4NC(=O)[C@@H](CCCNC(=N)N)NC(=O)[C@H](CCCNC(=N)N)NC(=O)[C@@H](CCCNC(=N)N)NC(=O)[C@H](CCCNC(=N)N)NC(=O)[C@H](Cc5ccc6ccccc6c5)NC(=O)[C@@H](Cc5ccccc5)NC(=O)[C@H](Cc5ccccc5)NC4=O)C(N)=O)cc3C(=O)[O-])c3ccc(=[N+](C)C)cc-3oc2c1` is reported as 27 ± 9 µM (fetal bovine serum proteins; binding, fluorescence polarization; 1 h).
`C[C@H](N)C(=O)N[C@@H](CCCNC(=N)N)C(=O)N[C@H](C(=O)N[C@@H](CCCCN)C(=O)N[C@@H](CCC(N)=O)C(=O)N[C@H](C(=O)N[C@@H](C)C(=O)N[C@@H](CCCNC(=N)N)C(=O)N[C@@H](CCCCN)C(=O)N[C@@H](CO)C(=O)N[C@H](C(=O)NCC(=O)O)[C@@H](C)O)[C@@H](C)O)[C@@H](C)OP(=O)(O)O` has a Kd of 6.8 ± 0.24 µM (Baculoviral IAP repeat-containing protein 5.1-A (birc5.1-a, Xenopus laevis, UniProt Q8JGN5); ITC; pH 7.6, 25 °C).
The Kd of `CC[C@H](C)[C@H](NC(=O)[C@H](CC(=O)O)NC(=O)[C@@H](NC(=O)[C@@H]1CCCN1C(=O)[C@H](CC(N)=O)NC(=O)[C@H](CCC(N)=O)NC(=O)[C@H](CCC(N)=O)NC(=O)[C@H](CC(N)=O)NC(=O)CNC(=O)[C@H](Cc1ccc(O)cc1)NC(=O)[C@@H](NC(=O)[C@H](CCC(=O)O)NC(=O)[C@@H](NC(=O)[C@@H](NC(=O)[C@H](Cc1ccc(O)cc1)NC(=O)[C@H](CCC(=O)O)NC(=O)[C@@H](NC(=O)[C@H](CCC(=O)O)NC(=O)CNC(=O)[C@H](CO)NC(=O)[C@H](CCC(=O)O)NC(=O)CNC(=O)[C@H](C)NC(=O)[C@H](CC(C)C)NC(=O)[C@@H]1CCCN1C(=O)[C@H](CO)NC(=O)[C@H](CCC(N)=O)NC(=O)[C@H](CC(=O)O)NC(=O)[C@H](CCCCN)NC(=O)[C@@H](NC(=O)CNC(=O)[C@H](CCCCN)NC(=O)[C@H](CO)NC(=O)CN)[C@@H](C)O)[C@@H](C)O)[C@@H](C)CC)[C@@H](C)O)C(C)C)C(C)C)C(=O)N[C@@H](CC(=O)O)C(=O)N[C@@H](CCCCN)C(=O)N[C@@H](CCCCN)C(=O)N[C@@H](CC(C)C)C(=O)N1CCC[C@H]1C(=O)N[C@@H](CC(N)=O)C(=O)N[C@@H](CCC(=O)O)C(=O)N[C@H](C(=O)NCC(=O)N[C@@H](Cc1ccccc1)C(=O)N[C@@H](CO)C(=O)NCC(=O)N[C@@H](CC(N)=O)C(=O)N[C@@H](CCSC)C(=O)N[C@H](C(=O)N[C@@H](CCC(=O)O)C(=O)N[C@H](C(=O)N[C@@H](CCC(=O)O)C(=O)N[C@@H](CC(=O)O)C(=O)N[C@H](C(=O)N[C@@H](CCCCN)C(=O)N[C@@H](C)C(=O)O)[C@@H](C)O)[C@@H](C)O)C(C)C)[C@@H](C)O` is reported as 0.059 µM (Fibronectin (FN1, Homo sapiens, UniProt P02751); binding, ITC; pH 7.4).
For `N[C@@H](Cc1ccc(O)c(I)c1)C(=O)O`, the Kd was 1.1 ± 0.1 µM (Iodotyrosine deiodinase (IYD, Thermotoga neapolitana, UniProt B9K712, M41K); FMN fluorescence quenching; 25 °C, M41K variant).
`COc1ccc(-c2cnc3[nH]cc(C#Cc4cccnc4)c3c2)cc1OC` has a Kd of 0.0038 µM (BMP-2-inducible protein kinase (BMP2K, Homo sapiens, UniProt Q9NSY1); binding).
The Kd of `CC(=O)CC(c1ccc(O)cc1)c1c(O)c2ccccc2oc1=O` (stereo not drawn) is reported as 25.5 µM (Albumin (ALB, Homo sapiens, UniProt P02768); binding, switchSENSE; pH 7.4, 1% DMSO).
`N=C(N)NCCC[C@H](NC(=O)[C@H](Cc1ccccc1)NC(=O)[C@@H]1CCCN1C(=O)[C@H](CO)NC(=O)[C@H](Cc1ccccc1)NC(=O)CNC(=O)[C@@H]1CCCN1C(=O)[C@@H]1CCCN1C(=O)[C@@H](N)CCCNC(=N)N)C(=O)N[C@@H](CCCCNS(=O)(=O)c1ccc(C2=c3cc4c5c(c3Oc3c2cc2c6c3CCCN6CCC2)CCC[N+]=5CCC4)c(S(=O)(=O)[O-])c1)C(=O)O` gave a Kd of 16 ± 1 µM (Oligopeptide-binding protein OppA (oppA, Lactococcus lactis subsp. lactis, UniProt Q07741); binding, fluorescence anisotropy; pH 6.5, 24 °C, with: dye-labelled peptide).
For `CCOC(=O)CCCOc1ccc(C(=C2C=CC(=[N+]3CCC3)C=C2)c2ccc(N3CCC3)cc2)cc1`, the Kd was 0.016 µM (dL5** fluorogen-activating protein; fluorescence turn-on).
`CC(=O)N[C@@H](CO)C(=O)N[C@@H](Cc1ccccc1)C(=O)N[C@@H](CCC(=O)O)C(=O)N[C@@H](Cc1ccccc1Cl)C(=O)N1CCC[C@]12C=C[C@@H]1CC[C@@H](C(=O)N3CC[C@@H]4C=C[C@H]5CC[C@@H](C(=O)N[C@H](C(=O)N[C@@H](CCC(=O)O)C(=O)N[C@@H](CC(=O)O)C(=O)N[C@@H](CCC(=O)O)C(=O)N[C@@H](CC(C)C)C(N)=O)[C@@H](C)O)N5C(=O)[C@H]43)N1C2=O` gave a Kd of 0.15 µM (Protein enabled homolog (ENAH, UniProt Q8N8S7); binding, fluorescence; pH 7.3).
With `C[C@@H](O)[C@H](NC(=O)[C@@H]1CCCN1C(=O)[C@H](COP(=O)(O)O)NC(=O)[C@H](Cc1ccc(O)cc1)NC(=O)[C@H](CO)NC(=O)[C@@H]1CCCN1C(=O)[C@H](COP(=O)(O)O)NC(=O)[C@@H](NC(=O)[C@@H]1CCCN1C(=O)[C@H](COP(=O)(O)O)NC(=O)[C@H](Cc1ccc(O)cc1)NC(=O)[C@H](CO)NC(=O)[C@@H]1CCCN1C(=O)[C@@H](N)CO)[C@@H](C)O)C(=O)N[C@@H](COP(=O)(O)O)C(=O)N1CCC[C@H]1C(=O)N[C@@H](CO)C(=O)N[C@@H](Cc1ccc(O)cc1)C(=O)N[C@@H](CO)C(=O)O` the Kd was greater than 1000 µM (Regulation of nuclear pre-mRNA domain-containing protein 1A, CID domain (RPRD1A, Homo sapiens, UniProt Q96P16); isothermal titration calorimetry; pH 7.5, 25 °C).
For `COC(=O)[C@H](Cc1ccccc1)NC(=O)[C@@H]1CCCN1C(=O)[C@H](CCC(N)=O)NC(=O)[C@H](C)NC(C)=O`, the Kd was 62.5 µM (Peptidyl-prolyl cis-trans isomerase NIMA-interacting 1 (PIN1, Homo sapiens, UniProt Q13526); binding; pH 7.4).
